Results of several laboratories.
± marks the error that the study gave.

Structure (SMILES) | assay | test system | setting | how to read | quantity | value
CN[C@](C)(C[18F])C(=O)O |  | SCID mouse U87 xenograft, brain | 15 min, post injection |  | tissue uptake | 0.5 ± 0.1 %ID/g
CC(C)C[C@H](NC(=O)[C@H](CCCCN)NC(=O)[C@H](CCC(=O)O)NC(=O)[C@H](C)NC(=O)[C@@H](NC(=O)[C@H](CCCCN)NC(=O)[C@H](CC(=O)O)NC(=O)[C@H](Cc1ccc(O)cc1)NC(=O)[C@H](Cc1ccccc1)NC(=O)[C@H](C)NC(=O)[C@H](CCCCN)NC(=O)[C@H](CC(C)C)NC(=O)[C@H](Cc1c[nH]c2ccccc12)NC(=O)[C@@H](N)CC(=O)O)C(C)C)C(=O)N[C@@H](CCCCN)C(=O)N[C@@H](CCC(=O)O)C(=O)N[C@@H](C)C(=O)N[C@@H](Cc1ccccc1)C(=O)N1CCC[C@H]1C(=O)N[C@@H](CC(=O)O)C(=O)N[C@@H](Cc1c[nH]c2ccccc12)C(=O)N[C@@H](C)C(=O)N[C@@H](CCCCN)C(=O)N[C@@H](C)C(=O)N[C@@H](C)C(=O)N[C@@H](Cc1ccc(O)cc1)C(=O)N[C@@H](CC(=O)O)C(=O)N[C@@H](CCCCN)C(=O)N[C@@H](C)C(=O)N[C@@H](C)C(=O)N[C@@H](CCC(=O)O)C(=O)N[C@@H](CCCCN)C(=O)N[C@@H](C)C(=O)N[C@@H](CCCCN)C(=O)N[C@@H](CCC(=O)O)C(=O)N[C@@H](C)C(=O)N[C@@H](C)C(=O)O |  | cynomolgus monkey male, plasma | intravenous infusion, 25 mg/kg, day 1, 30 min infusion |  | half-life | 3.7 h
CC(C)C1=C(OC(=O)C(C)(C)C)C(=O)C2=C(C=C[C@H]3C(C)(C)CCC[C@]23C)C1=O |  | Artemia salina, artificial seawater | 100 ppm, 24 h |  | mortality | 52.2%
CC(C)C[C@H](NC(=O)C[C@H](O)[C@H](CC(C)C)NC(=O)[C@H](Cc1c[nH]cn1)NC(=O)CNC(=O)[C@@H](NC(=O)[C@H](C)NC(=O)[C@H](Cc1c[nH]c2ccccc12)NC(=O)[C@H](CCC(N)=O)NC(=O)[C@@H](Cc1ccccc1)NC(=O)CCNC(=O)CCNC(=O)CN1CCN(CC(=O)O)CCN(CC(=O)O)CCN(CC(=O)O)CC1)C(C)C)C(N)=O [lutetium-177 labelled] |  | mouse, PC-3 xenograft | intraperitoneal, 50 MBq/200 pmol, four doses, with or without protease inhibitor |  | toxicity | not toxic
CC(C)(CCCC/C=C/CCCCCC(C)(C)C(=O)O)C(=O)O |  | rhesus monkey, male, hyperlipidaemic, plasma | oral, 20 mg/kg, first dose |  | Tmax | 1.33 ± 0.58 h
CCN(Cc1ccccc1)C(=O)CCc1nc(CN2CCN(C(=O)Cc3ccc(OC)c(OC)c3)CC2)no1 |  | rat, dorsal root ganglion | intravenous, 1 mg/kg, 15 min |  | concentration | 0.14 ± 0.012 ng/mg
CC[C@H](C)[C@H](NC(=O)[C@H](CCCCN)NC(=O)CNC(=O)[C@H](CC(C)C)NC(=O)[C@H](Cc1ccccc1)NC(=O)[C@H](CCCCN)NC(=O)[C@H](CO)NC(=O)[C@H](Cc1ccccc1)NC(=O)[C@H](Cc1c[nH]c2ccccc12)NC(=O)[C@H](CCC(N)=O)NC(=O)[C@@H](NC(=O)[C@H](Cc1ccccc1)NC(=O)CCCCCNC(=O)CN1CCN(CC(=O)O)CCN(CC(=O)O)CCN(CC(=O)O)CC1)C(C)C)C(=O)N[C@@H](CCC(=O)O)C(=O)N1CCC[C@H]1C(=O)N[C@@H](CC(=O)O)C(=O)N[C@H](C(=O)N[C@@H](CO)C(=O)N[C@@H](CCC(N)=O)C(=O)N[C@H](C(=O)N[C@@H](CCC(N)=O)C(=O)N[C@@H](CC(=O)O)C(=O)N1CCC[C@H]1C(=O)N[C@@H](CC(N)=O)C(=O)N[C@@H](CC(=O)O)C(=O)N[C@@H](CCC(N)=O)C(=O)N[C@@H](Cc1ccc(O)cc1)C(=O)N[C@@H](CCC(=O)O)C(=O)N1CCC[C@H]1C(=O)N[C@@H](Cc1ccccc1)C(=O)O)C(C)C)C(C)C [copper-64 labelled] | dynamic PET | BALB/c mice | intravenous |  | blood clearance t1/2 | ~8 min
CSCC[C@@H]1NC(=O)[C@@H]2CSSC[C@H](NC(=O)[C@H](CO)NC(=O)[C@H](C)N)C(=O)N[C@@H](CCCNC(=N)N)C(=O)N[C@@H]([C@@H](C)O)C(=O)N3CCC[C@H]3C(=O)N[C@@H](CCCCN)C(=O)N[C@@H](CC(=O)O)C(=O)N[C@H]3CSSC[C@H](NC(=O)[C@H](CCCCN)NC(=O)[C@H](CCCNC(=N)N)NC(=O)[C@H](CC(N)=O)NC1=O)C(=O)N[C@@H](CCCCN)C(=O)N[C@H]1CSSC[C@H](NC(=O)[C@@H]4CCCN4C(=O)[C@H](CC(=O)O)NC(=O)[C@H](C)NC3=O)C(=O)N[C@@H](C)C(=O)N[C@@H](CCCCN)C(=O)N[C@@H](CCC(=O)O)C(=O)N[C@@H]([C@@H](C)O)C(=O)NCC(=O)N[C@@H](CSSC[C@@H](C(N)=O)NC(=O)[C@H](CCCNC(=N)N)NC(=O)[C@H](CC(N)=O)NC1=O)C(=O)N1CCC[C@H]1C(=O)N[C@@H](Cc1ccc(O)cc1)C(=O)NCC(=O)N[C@@H](CCCCN)C(=O)N2 |  | DA rat, pristane-induced arthritis, serum | subcutaneous, single 0.1 mg/kg at onset, end of 21-day trial |  | AST | 116 U/L
CC(=O)NC(Cc1ccc(Br)c(Cl)c1)C(=O)N[C@@H](C)C(=O)N1CCC[C@H]1C(=O)N1CCC[C@H]1C(=O)N[C@@H](CCC(=O)O)C(=O)N[C@@H](Cc1c[nH]cn1)C(=O)N[C@@H](CO)C(=O)N[C@H](C(=O)N[C@@H](C)C(N)=O)[C@@H](C)OP(=O)(O)O (stereo partly shown) | chemical stability | human, serum | 5 µM, 2 h |  | compound remaining | ~75%
CN(C)C(CNC(=O)Nc1cc(C(F)(F)F)ccc1N1CCOCC1)c1ccncc1 (stereo not shown) |  | mouse, serum | intraperitoneal, 180 mg/kg single dose |  | serum potassium | 6.2 mmol/L
CCc1noc(CC)c1C(=O)O[C@H]1C(C)=C[C@]23C(=O)[C@@H](C=C(CO)[C@@H](O)[C@]12O)[C@H]1[C@@H](C[C@H]3C)C1(C)C |  | human, dermis, Franz diffusion cell | topical, 0.1% in hydroalcoholic gel, 21 h |  | dermal concentration | 690 ± 257 nM
CC[C@H](C)[C@H](N)C(=O)N[C@@H](CO)C(=O)N[C@@H](Cc1ccc(O)cc1)C(=O)NCC(=O)NCC(=O)N[C@@H](C)C(=O)N[C@@H](CC(=O)O)C(=O)N[C@@H](Cc1ccc(O)cc1)C(=O)N[C@@H](CCCCN)C(=O)O | open field test | mice | intrathecal, dose not given, 30 min before test |  | locomotor activity | no effect
O=C(O)[c-]1cccc1.O=C(Oc1ccc(-n2cccc2)cc1)[c-]1cccc1.[Fe+2] | cyclic voltammetry | acetonitrile |  | relative to: Ag/AgCl | Epc | 901 mV
C[C@]12CC[C@H](O)CC1CCC1C2[C@H](O)C(=O)[C@]2(C)[C@@H](c3ccc(=O)oc3)CC[C@]12O (stereo partly shown) | substrate | dog liver cytosol | concentration not given |  | sulfation activity | inactive
CCCCCCCCCCCCC(=O)O.O=C1CCCC2C3CCCN4CCCC(CN12)C34 (stereo not shown) | electrical conductivity | water | 303.15 K, critical micelle concentration |  | entropic term −TΔS of micellization | -7.35 kcal/mol
CNC(=O)Oc1cc(C)c([S+](C)[O-])c(C)c1 (stereo not shown) |  | human liver mitochondrial preparation | 1 µM, 30 min, 0.5 mg/mL protein |  | percent metabolized | 5.51%
CC(C)[C@H](NC(=O)CNC(=O)[C@H](CCC(N)=O)NC(=O)[C@H](C)N)C(=O)O | Possibly drug-related | human | 20 mg/kg, 3 days, thrice daily dosing |  | subjects with adverse events | 0%
CCc1cnc(NC(=O)c2cc(S(=O)(=O)N3CCOCC3)ccc2N(C)C2CCCC2)s1 |  | mouse, HCC827-GR xenograft | ip, 10 mg/kg |  | tolerability | not toxic
CC[C@H](C)C(=O)N1CCC(NC(=O)Nc2ccc(OC(F)(F)F)c(F)c2)CC1 |  | human, plasma | oral, 8 mg, single dose, fasted, healthy volunteers |  | AUC(0-t) | 3120 ng·h/mL
CC[C@@H](C)[C@@H](NC(=O)[C@@H](C)NC(=O)[C@@H](CCCCN)NC(=O)[C@@H](CC(C)C)NC(=O)[C@@H](C)NC(=O)[C@H](NC(=O)[C@@H](Cc1c[nH]cn1)NC(=O)[C@@H](CC(C)C)NC(=O)[C@H](NC(=O)[C@H](NC(=O)[C@@H](CCCCN)NC(=O)[C@@H](CCCCN)NC(=O)[C@@H](C)NC(=O)[C@@H](CO)NC(=O)[C@@H](CCCCN)NC(=O)[C@@H](Cc1ccccc1)NC(=O)[C@H](NC(=O)[C@@H](CCCCN)NC(=O)[C@@H](CC(C)C)NC(=O)[C@@H](Cc1ccccc1)NC(=O)[C@@H](CO)NC(=O)[C@@H](CCCCN)NC(=O)[C@@H](Cc1c[nH]c2ccccc12)NC(=O)[C@@H](CCCCN)NC(C)=O)[C@H](C)O)[C@H](C)O)C(C)C)[C@H](C)O)C(=O)N[C@H](CO)C(=O)N[C@H](CO)C(N)=O | RP-HPLC temperature profiling |  | pH 2, 5-80 °C, unit not given | relative to: control peptide | self-association parameter | 2.78
O=C(NCCCCCCCn1ccc2ccccc21)Oc1ccccc1 |  | porcine plasma | 20 µM, 30 min |  | parent remaining | 39 ± 7%
CCCC(=O)OC1O[C@@H]2O[C@@]3(C)CC[C@H]4[C@H](C)CCC([C@H]1C)[C@@]24OO3 (stereo partly shown) |  | Tg(fli1:EGFP) zebrafish embryos | 1.0 µg/mL, up to 48 hpf |  | dead embryos | 2 count

A few entries again:
Structure (SMILES) | assay | test system | setting | how to read | quantity | value
CN(C)C(CNC(=O)Nc1cc(C(F)(F)F)ccc1N1CCOCC1)c1ccncc1 (stereo not shown) |  | mouse, serum | intraperitoneal, 180 mg/kg single dose |  | serum potassium | 6.2 mmol/L
O=C(NCCCCCCCn1ccc2ccccc21)Oc1ccccc1 |  | porcine plasma | 20 µM, 30 min |  | parent remaining | 39 ± 7%
